Results of several laboratories.
Numbered parts are unrelated; each lists some results of a single study. Substitutions count along the parent as printed.

Series 1 — method: protein binding microarray; molecule type: double-stranded DNA, one strand shown; medium: in vitro; tested at: not given; relative to: not given; direction: higher = stronger binding
Target: Histone acetyltransferase KAT6A, both winged helices, GST fusion (KAT6A, Homo sapiens, UniProt Q92794, residues 1-181)
Setting: 8-mer, flanks averaged, mean of 2 arrays, mostly near background
Construct (chain): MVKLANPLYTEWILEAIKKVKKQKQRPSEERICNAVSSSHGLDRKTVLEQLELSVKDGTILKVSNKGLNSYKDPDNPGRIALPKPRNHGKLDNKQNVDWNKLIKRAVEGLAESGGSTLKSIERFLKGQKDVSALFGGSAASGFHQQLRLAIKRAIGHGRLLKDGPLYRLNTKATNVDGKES
Sequence	E-score
ATGACACA	-0.0353
CCGATCAA	0.0934
AGGTGCCA	-0.244
AAGTAGTC	-0.0573
CAGGAGGC	-0.0754
GCAAATAC	-0.069
AGGCTAAC	-0.167
ACTTGAAG	-0.137
ACCACAAA	-0.0197
AGCGTCAT	0.0631
AACTACAT	-0.202
AATGTCGC	0.0788
ACTGCAGA	-0.201
AACTTGCT	-0.0914
GACCAGCC	-0.175
CCTCGATC	-0.134
GAATTGTA	-0.019
CTAGCGCC	0.24
GTGACCAA	-0.205
GGACAGCA	-0.128
CGATTTGA	-0.177
ATTCCCCA	-0.294
ATAGAAGG	-0.00972
ATAATTAG	-0.0692
CCCAAGTA	-0.128

Series 2 — method: RNA Bind-n-Seq; molecule type: RNA; medium: in vitro; tested at: 20 nM; setting: 6-mer, flanks averaged, single round; with: 150 mM LiCl; relative to: input library; direction: higher = stronger binding
Target: TAR DNA-binding protein 43, full length, His tag (TARDBP, Homo sapiens, UniProt Q13148, residues 1-414)
Sequence	6-mer enrichment (R)
AAUGGG	1.17
UGGACA	0.967
AUCCAA	0.799
ACACCG	0.915
GAGUGA	1.26
CCGUAU	0.932
ACCAGU	0.887
GGUUAA	0.992
ACAAAG	0.844
UUGCUC	0.936
UCGAAU	0.855
UCUGCU	0.912
UAUUAU	1.11
AAGGGC	0.957
UAACUA	0.897
GAUGCU	0.919
GCCAAC	0.882

Series 3 — method: universal PBM; molecule type: double-stranded DNA, one strand shown; medium: in vitro; tested at: 600 nM; direction: higher = stronger binding
Target: Sal-like protein 4, full length isoform A (SALL4, Homo sapiens, UniProt Q9UJQ4, residues 1-1053)
Sequence of UniProt Q9UJQ4 (whole entry, looked up): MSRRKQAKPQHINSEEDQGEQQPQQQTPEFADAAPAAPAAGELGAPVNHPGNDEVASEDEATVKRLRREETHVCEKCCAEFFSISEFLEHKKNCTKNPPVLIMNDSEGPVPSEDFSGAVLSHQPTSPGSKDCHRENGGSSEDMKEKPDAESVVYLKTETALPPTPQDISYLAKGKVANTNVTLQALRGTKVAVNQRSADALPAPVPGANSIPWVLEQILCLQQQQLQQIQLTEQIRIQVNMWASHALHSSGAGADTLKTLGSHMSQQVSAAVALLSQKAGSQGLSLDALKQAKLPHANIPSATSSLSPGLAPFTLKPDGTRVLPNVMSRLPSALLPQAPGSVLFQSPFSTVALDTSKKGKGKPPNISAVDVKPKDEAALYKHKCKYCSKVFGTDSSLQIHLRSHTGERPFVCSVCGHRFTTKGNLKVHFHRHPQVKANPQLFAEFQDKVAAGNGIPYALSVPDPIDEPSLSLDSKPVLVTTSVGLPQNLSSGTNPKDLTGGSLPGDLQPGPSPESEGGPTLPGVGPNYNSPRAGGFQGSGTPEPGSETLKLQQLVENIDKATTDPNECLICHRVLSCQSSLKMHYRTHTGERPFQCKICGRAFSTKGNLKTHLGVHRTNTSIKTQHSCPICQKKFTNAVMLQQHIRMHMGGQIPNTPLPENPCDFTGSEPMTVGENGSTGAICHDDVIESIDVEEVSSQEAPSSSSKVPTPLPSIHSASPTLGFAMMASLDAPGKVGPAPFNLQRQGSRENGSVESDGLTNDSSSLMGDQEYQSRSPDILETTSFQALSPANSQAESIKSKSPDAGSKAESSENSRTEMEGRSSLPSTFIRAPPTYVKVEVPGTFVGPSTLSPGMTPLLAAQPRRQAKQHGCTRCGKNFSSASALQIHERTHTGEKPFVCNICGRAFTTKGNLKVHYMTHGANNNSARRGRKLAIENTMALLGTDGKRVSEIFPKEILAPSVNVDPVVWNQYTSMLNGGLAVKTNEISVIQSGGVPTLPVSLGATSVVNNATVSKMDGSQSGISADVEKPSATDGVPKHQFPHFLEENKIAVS
Setting: 8-mer, flanks averaged, mean of replicates
Sequence	E-score
TACAAAAA	0.343
CGGCACGC	-0.217
AACCAGTT	0.152
GATCGCAA	0.0159
CACACGAA	0.0572
CTCCGGAC	-0.289
CCAACTAA	0.0786
ACCTCTAA	0.108
AGTATGTC	0.116
CAAGAGCG	-0.136
CGTTTAGA	-0.0255
CATGCCTC	-0.0799
CACGGAGG	-0.165
GCCCCTTA	-0.175
AGTCGGTC	-0.238
TCGCAGAA	0.00069
CCTGCGAG	-0.153
TCATAACA	0.366
ACTAGCCA	-0.0926
CCACATGG	-0.201
CAAACGAG	-0.0565
AATTGAAC	0.142
AGTCTGCG	-0.254
GAGGGCGC	-0.332
AATAATTG	0.404

Series 4 — method: DHFR PCA, deep sequencing; medium: yeast; with: (+)-ABA 4.8 µM; relative to: wild-type fitted maximum; direction: higher = stronger binding
Target: ABI1, truncated, D143A, DHFR fusion (Arabidopsis thaliana)
Setting: methotrexate growth selection, single substitutions
Starting sequence: PYL1, truncated, DHFR fusion (Arabidopsis thaliana); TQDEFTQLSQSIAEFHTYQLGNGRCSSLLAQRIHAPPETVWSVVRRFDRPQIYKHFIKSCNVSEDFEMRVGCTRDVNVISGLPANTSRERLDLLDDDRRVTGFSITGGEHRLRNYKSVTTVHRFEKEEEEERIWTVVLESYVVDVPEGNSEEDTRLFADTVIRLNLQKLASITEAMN
Substitution	relative binding score [%]
V142K	23.7
K168E	12.1
D159E	45
S87L	14.2
S42P	17.7
T101C	59.7
F66K	49.2
A13E	75.2
R24C	47.3
G108Y	1.63
I162Y	-11.1
R163S	53.7
T86P	-3.09
N114S	10.9
V137W	4.01
P146Y	8.9
R111V	2.38

Series 5 — method: RNA Bind-n-Seq; molecule type: RNA; medium: in vitro; tested at: 365 nM; relative to: no-protein control; direction: higher = stronger binding
Target: RNA binding protein fox-1 homolog 2, RRM domain, GST-SBP tag (RBFOX2, Homo sapiens, UniProt O43251-10, residues 100-194)
Setting: natural RNA segment, single round, ends assumed
Target sequence (chain): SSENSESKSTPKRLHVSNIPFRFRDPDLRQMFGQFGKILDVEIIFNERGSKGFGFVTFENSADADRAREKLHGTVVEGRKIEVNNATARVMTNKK
Sequence	RBNS enrichment (R)
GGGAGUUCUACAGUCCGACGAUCUGCUCUUCUGUCCUGCCUCACUGUAACUGCCUCCAUUCUGUGCAGUCUACAGUAAGAAUGCCUGCUUCCAAGACUCAGAUACAUAGGGACGUUUUUACCCGUUCCGUAGAUGGAAUUCUCGGGUGCCAA	0.816
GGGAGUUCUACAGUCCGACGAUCGACCACAAGAAGGAUGAUUCAACAGGUUUUCCUGAAGAAUUGAAAAACCAUUUUGCUGUCCCUUUUCCUUUUUUGAUGUUCUUUCACCCUUUUCUGUUUGCUAAGUGAGGUGGAAUUCUCGGGUGCCAA	0.763
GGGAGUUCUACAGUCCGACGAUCAUCCGAGGUGCUGCCGGGGCAGCGGGAGGUGGCUGGACCCAUCGCAUCUAAAACUGGCCCAGGACACUUGGUGUAUGCGUGACUUGGCUGUGGCUGUCUUUUUUAAUCCUUGGAAUUCUCGGGUGCCAA	5.05
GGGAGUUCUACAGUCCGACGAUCACGUUGGCUCAUGCAUAUAACCACCUGCUGCUGAUGUACUUCUCCAUCUUAAAAAGAUUUAGAGUGGAUUAACCAGGUCAUUACAUCUUAAUUUAAUAACAAGCAUUACUUGGAAUUCUCGGGUGCCAA	0.366
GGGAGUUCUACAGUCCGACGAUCAACUACCAGUACAGAUAGCCCCCGCGGGGCGGAGAUUUCUACCUUCUGCACUUACUCCCCAUCAGAAGAUCGAGUUUUAUGCAUCACAGUUAACAUGUCAGCUGGCCCUCUGGAAUUCUCGGGUGCCAA	1.19
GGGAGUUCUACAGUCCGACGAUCGAUUCCAGGGGUGUGAUUGAAUAUUUAUCUCUUGCUCUUGUAUGUUUGUUGGGGAGAAGAAGCACUUUUAAGGAAAAUGCUUCUUAUUUUUCCAAGGCAUUCAGAAGCAGUGGAAUUCUCGGGUGCCAA	0.506
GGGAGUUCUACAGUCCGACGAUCCGCUUGAGGCCAGGAGUUUGAGACCACCUUGGGCAACAUAACGAGACCCCGUCUCUACAAAAAAAAUUUAAAAAUUAGCUGAGCAUGGUGGCAUGUGCCAGUAGUCCCAGUGGAAUUCUCGGGUGCCAA	1.64
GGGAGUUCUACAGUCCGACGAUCUUUUUUUUAGCAGCGCCUUUGCUAGAUCAGCUGCCAGUUUGGAUUAUUGCCCUUAAGAGCUUUAAAGAUAGUUUUUUUUACAUGCCUUAUGCAUACAUUCCACUACUGACUGGAAUUCUCGGGUGCCAA	0.487
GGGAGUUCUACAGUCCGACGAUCGAGGGUCAGGGAAGAAACCCACUCUUGCUCUACGAGGAGCAAGUGCCUGCCCCCUCCCAGCAGCCAGCCCUGCCAAAGUUGCAUUAUCUUUGGCCAAGGCUGGGCCUGACUGGAAUUCUCGGGUGCCAA	1.33
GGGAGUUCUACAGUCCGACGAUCAAAUAUAGGUCAUAACUUCGGCACGACUUUAAGUACUAAGCAAUAAUGGAGUCGUCAGACGCCUCCGCUUACCGUGAACCAGUAUGAGCUUGGGAGAAAGGAACUGGAAGUGGAAUUCUCGGGUGCCAA	0.293
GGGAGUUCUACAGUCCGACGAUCACCCAUCUUCAGCUGAGGUUGUUAUGGGGGGCUGGAAUCACGUGUUUUUUAAACCUGAUAUUUUCAUUCCUAAUUGAGUGACAGCCAUCUUUUAAGGUGUUGGGCAUGGAUGGAAUUCUCGGGUGCCAA	0.446
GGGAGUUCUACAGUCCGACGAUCUGUGGACAUAAAUGUAUCUAAAUAAAACUUUCCCUAGCACUGUGGCUGACCUCACCCUUACUUUUAUACUUUAGUAUGAAACUGAUGAGAACUUUGGUAGUGAGUAUUUUUGGAAUUCUCGGGUGCCAA	0.55

Series 6 — method: aptamer microarray, sandwich; molecule type: DNA with 2'F-ANA; medium: in vitro; tested at: 200 nM; with: Cy3 exosite-II aptamer, 400 nM; direction: higher = stronger binding; sequence: GGTTGGTGTGGTTGG
Target: Prothrombin, mature alpha-thrombin (F2, Homo sapiens, UniProt P00734)
Setting: whole 15-mer aptamer, many near background
Modification	mean fluorescence intensity
2'F-ANA at 2 3 4 5 6 9 10 11 13 14	64.5 a.u.
2'F-ANA at 2 3 5 6 8 9 10 12 13 14	46.1 a.u.
2'F-ANA at 1 2 6 7 9 11 13 14 15	95 a.u.
2'F-ANA at 2 3 6 7 8 10 11 14	299 a.u.
2'F-ANA at 1 4 5 6 14	45.2 a.u.
2'F-ANA at 1 6 8 12 13	317 a.u.
2'F-ANA at 1 4 5 7 9 10 11 12 13 15	58.2 a.u.
2'F-ANA at 5 6 8 10 11 14	44.5 a.u.
2'F-ANA at 1 2 6 7 9 11 14	52.7 a.u.
2'F-ANA at 4 6 9 10 12 13 14	69.4 a.u.
2'F-ANA at 1 3 4 5 9 10 11 13 15	56.9 a.u.
2'F-ANA at 4 10 11 12 14	60 a.u.
2'F-ANA at 1 3 4 5 8	59.7 a.u.
2'F-ANA at 1 3 4 5 6 7 8 9 11 12 14	48.7 a.u.
2'F-ANA at 2 5 7 11 13 15	50.5 a.u.
2'F-ANA at 1 2 5 10 11 12 14	64.5 a.u.
2'F-ANA at 1 2 7 8 11 15	181 a.u.
2'F-ANA at 4 6 9 10 11 12 15	99.8 a.u.
2'F-ANA at 1 2 5 6 7 8 9 13	74.5 a.u.
2'F-ANA at 1 2 4 6 10 11 12 13 14	53.7 a.u.
2'F-ANA at 2 4 5 6 7 12 14	49.4 a.u.
2'F-ANA at 4 6 10 12 14 15	54.8 a.u.

For quick reference, copied from above (series 2):
Sequence	6-mer enrichment (R)
AUCCAA	0.799
ACACCG	0.915
GAGUGA	1.26
CCGUAU	0.932
ACCAGU	0.887
GGUUAA	0.992
ACAAAG	0.844
UUGCUC	0.936
UCGAAU	0.855
UCUGCU	0.912
UAUUAU	1.11
AAGGGC	0.957
UAACUA	0.897
GAUGCU	0.919
